Experimental data from different studies.
Each numbered part is a random draw from the data of one study; scales do not carry over between parts. Positions count from the first letter of the parent shown.

Block 1
Target: PABPC1L2, full length, GST fusion (mouse, UniProt A0ABA7IW68)
Technique: RNAcompete
Molecule type: RNA
Sample: in vitro
Tested at: 20 nM
Setting: 7-mer, probes averaged, single round
Reference: mean of 7-mers
Direction: higher = stronger binding
Residues (chain): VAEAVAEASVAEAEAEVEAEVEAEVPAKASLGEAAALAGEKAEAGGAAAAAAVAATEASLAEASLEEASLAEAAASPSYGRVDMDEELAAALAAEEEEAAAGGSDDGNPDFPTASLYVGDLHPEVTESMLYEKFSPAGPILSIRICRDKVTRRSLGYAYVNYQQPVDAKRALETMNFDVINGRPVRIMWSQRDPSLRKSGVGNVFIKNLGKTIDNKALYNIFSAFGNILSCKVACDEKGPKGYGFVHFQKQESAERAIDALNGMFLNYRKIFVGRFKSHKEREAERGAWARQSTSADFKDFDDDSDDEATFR
Strand | 7-mer Z-score
UCCGGGC | 0.0315
UCGGACG | -0.135
CUCCAGA | -0.229
GCCGGUA | -0.0772
AUGAGAG | -0.0863
UUUAGUA | 0.0605
UGGUCAC | -0.101
GAUAUGG | 0.00436
GGCUAGC | -0.0518
CCAUCAG | -0.168
GUCCCAA | -0.079
CGUACGA | -0.327
UCAAUUC | -0.237
CUAGUAU | -0.226
AGUGGGG | 0.45
UCAUUAG | -0.22
GUUUGAA | -0.371
GCGUUCG | -0.255
CCGAGUG | -0.219
CUGACCC | -0.32
UAUCUAC | -0.177
UGGCUAA | 0.126
GGAAUAA | 0.642
AUAUUAG | 0.0623
UCCUCGU | -0.434

Block 2
Target: ABI1, truncated, D143A, DHFR fusion (Arabidopsis thaliana)
Technique: DHFR PCA, deep sequencing
Sample: yeast
Setting: methotrexate growth selection, single substitutions
Added: (+)-ABA 4.8 µM
Reference: wild-type fitted maximum
Direction: higher = stronger binding
Starting sequence: PYL1, truncated, DHFR fusion (Arabidopsis thaliana); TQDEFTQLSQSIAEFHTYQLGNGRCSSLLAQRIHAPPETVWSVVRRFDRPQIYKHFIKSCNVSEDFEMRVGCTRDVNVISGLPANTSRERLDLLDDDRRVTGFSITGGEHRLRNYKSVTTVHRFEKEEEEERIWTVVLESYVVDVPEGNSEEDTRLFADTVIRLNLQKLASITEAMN
Variant | relative binding score [%]
I79R | 31.6
T173P | 2.82
E125A | 78.8
F47K | -4.14
W41V | -2.47
H110W | 45.3
D95Y | 0.884
A158M | 35.9
V43H | 5
E4T | 68.2
C72T | 54.3
R69Y | 37.3
S150A | 9.02
V137L | 2.42
T173F | 19.2
N149C | 28.6
E67D | 70.4
R46S | 49.5
D95W | 4.84
V145T | 33.2
V76H | 1.61
T160Q | 10.9
V44Q | -10.1
V137M | -4.57
T119G | -6.81

Block 3
Target: JUNB, bZIP domain (human)
Technique: DHFR protein complementation
Sample: yeast
Setting: single substitutions, most at no-binding floor
Reference: wild-type JUN-FOS pair
Direction: higher = stronger binding
Starting sequence: JUN, bZIP domain (human); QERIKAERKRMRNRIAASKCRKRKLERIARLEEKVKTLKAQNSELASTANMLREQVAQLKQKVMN; partner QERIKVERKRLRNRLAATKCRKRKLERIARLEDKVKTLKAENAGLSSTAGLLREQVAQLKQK
Variant | binding fitness [natural log]
Q58P | -1.49
Q55I | -1.31
R30A | -0.912
T37N | -0.91
I28C | -1.4
M51A | -0.906
V35H | -1.49
V35C | -1.27
A46I | -0.927
E44Y | -1.3
K36M | -1.22
A49Q | -1.35
A46D | -1.49
S47F | -1.13
A46V | -1.05
N42C | -1.43
Q41K | -1.22
L31C | -1.41
A29W | -1.3
L38T | -1.35
L45T | -1.45
A29H | -1.06
A40S | -1.3

Block 4
Target: CCNB3, cyclin fold, Cln2 fusion (human)
Technique: yeast growth competition, sequencing
Sample: yeast
Setting: strong parent motif
Reference: not given
Direction: higher = stronger binding
Starting sequence: SCAPER docking peptide (human); SNARRSLNFGGST
Variant | normalised enrichment score
SNARRSWNFGGST [L7W] | 0.063
SNIRRSLNFGGST [A3I] | 0.937
SNARRSLNFGGSP [T13P] | 1.61
ENARRSLNFGGST [S1E] | 1.01
SNARRWLNFGGST [S6W] | 0.596
ANARRSLNFGGST [S1A] | 1.77
SNARRSMNFGGST [L7M] | 0.28
SNDRRSLNFGGST [A3D] | 0.0925
SNARRKLNFGGST [S6K] | 2.12
SNARRSLNFGGSQ [T13Q] | 1.47
SNARRSLHFGGST [N8H] | 1.07
SNRRRSLNFGGST [A3R] | -0.266
SHARRSLNFGGST [N2H] | 1.3
SNARRSGNFGGST [L7G] | -0.103
SDARRSLNFGGST [N2D] | 1.47
SNARRSLNFGGKT [S12K] | 1.38
SNARRSLIFGGST [N8I] | 1.26
SNARRSLNFGGSV [T13V] | 1.6

Block 5
Target: RNA binding protein fox-1 homolog 2, RRM domain, GST-SBP tag (RBFOX2, Homo sapiens, UniProt O43251-10, residues 100-194)
Technique: RNA Bind-n-Seq
Molecule type: RNA
Sample: in vitro
Tested at: 365 nM
Setting: natural RNA segment, single round, ends assumed
Reference: no-protein control
Direction: higher = stronger binding
Constant ends, left off below: GGGAGUUCUACAGUCCGACGAUC … UGGAAUUCUCGGGUGCCAA
Residues (chain): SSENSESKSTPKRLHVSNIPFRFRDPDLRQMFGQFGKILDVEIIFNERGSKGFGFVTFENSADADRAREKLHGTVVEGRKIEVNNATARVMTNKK
Strand | RBNS enrichment (R)
AUGUGGGGCUGGUGGAGAUGCCUCCACCCCAGGAGCCUCUGCAUAUGUGGUUCGUGGCCUUCUUCUCACCCAUUGGGAAAACCAAACAGCCUCACACUCUGUCCCCAUCG | 0.315
GGGACAGGCCUCAGUCCCUAGAGGUGUGUUUAAGCUUGUUGGGCAAGAGCUGGAUGCGGAUCUUCGGAAGGGCGGUGGGUAUCCCGAGUUCUCAGGAAUCCGACUGUAGA | 0.825
UCAUUAUGGAAAAUAACUUUUGGCAGUUUAGUUCCUAAUGUUAACAAUUCCUCUUUUUAAGAGAGGUACUACAUUUGAUUUCUCAAUUUCUCAGUUUGUUUUCAAUACAA | 0.46
GGGCUGUUUUAUCUUCCCUGAGUGCCUGGGUCUCCCUCCCUCACUUCUGCCCUUUCCCUUCCUCCUCCUCUUCUCCUCCCUCUUCCCUCAUCUCCCCCCUCCUUCCUCUG | 1.39
GUUUUAAAUAAAAGGAAAGAGCAAGUUUGCUCAGUCAAGUGAUCAGAUCCCGAAUCUAGAUUCCCAGUUCUAAGGCCUUAUCACCUCCCCUGCCCAUAGGCCAACAACCA | 0.334
GUACCCGCUCUGCCUCAAGCAUCCCCCACACAGGGCUCUGGUUUUCACUCGCUUCGUCCUAGAUAGUUUAAAUGGGAAUCGGAUCCCCUGGUUGAGAGCUAAGACAACCA | 1.27
AGAUUUUUUCUGGUCCAUUUCCCAUUUCCUUUUCUUCCCUGACCCCCAUACCCUCACCCUUAAAAUUCUCCUGUAACUCAACUAACAAAAUCAAGCCUGAUUCAAAACAU | 1.18
GCCAGGGCUCUGAAUUUAGCCUAACACUCAUCUUGGCUGUGGGCUUGGGAAGAAAUGGCCAUUAUUUACAGAUUGUAUUUGGUACAUAUUGUGUGAUACUUGAAAAGAUA | 0.437
UACCGCCCUCUCAGUUCAACUUUGCUCACUCAGGUUUCCACUUGGAAGACAUCUCCACAAGUCAGAAGUUCAUGCUGGGUUUUGCUGGCAGAAGGACAUCCAAGCCUGCA | 0.963
GGGCCGCGAGAUCUAGCAUCUCUGAAAUCCUGGCUGUCGAGGCUUUGAAGCAUGUGUUACCUGGUUAAGCUUGUUUUCUCUUGCUUUAGGCAAAUAAAAGUUUAAAAAUC | 2.58
CAGAAACUGACAGGAAUCAAUCAAAACAAUCGAAUUUUGAAUUGAGUAAAGUGCAAUUUCAUUGGAUAGCUAAAUAUCUUUGUAAGAUAGAGAUUGUUGAAAAUUCUAUU | 0.362
UAGCCUGGGCCCCCUCUGUGCACACAGUUCAGGCCUGCCCAGCUUCUUAUGGGCAAGCCACCAUCCCACUCUCGUCUCCCUGAGCUGUCUGGUUCUGCGGACCCAGGAAG | 0.324

Block 6
Target: Interferon regulatory factor 7, full length, phosphomimetic (IRF7, Homo sapiens, UniProt Q92985, residues 1-503, S471D/S472D/S475D/S476D/S477D/S483D/S484D/S487D)
Technique: protein-binding microarray
Molecule type: double-stranded DNA, one strand shown
Sample: in vitro
Tested at: 2200 nM top
Setting: 60-bp whole probe
Added: salmon DNA 0.4 mg/ml
Reference: random background probes
Direction: higher = stronger binding
Constant ends, left off below: GCCTAGCAC … GTCTTGATTCGCTTGACGCTGCTG
Residues (chain): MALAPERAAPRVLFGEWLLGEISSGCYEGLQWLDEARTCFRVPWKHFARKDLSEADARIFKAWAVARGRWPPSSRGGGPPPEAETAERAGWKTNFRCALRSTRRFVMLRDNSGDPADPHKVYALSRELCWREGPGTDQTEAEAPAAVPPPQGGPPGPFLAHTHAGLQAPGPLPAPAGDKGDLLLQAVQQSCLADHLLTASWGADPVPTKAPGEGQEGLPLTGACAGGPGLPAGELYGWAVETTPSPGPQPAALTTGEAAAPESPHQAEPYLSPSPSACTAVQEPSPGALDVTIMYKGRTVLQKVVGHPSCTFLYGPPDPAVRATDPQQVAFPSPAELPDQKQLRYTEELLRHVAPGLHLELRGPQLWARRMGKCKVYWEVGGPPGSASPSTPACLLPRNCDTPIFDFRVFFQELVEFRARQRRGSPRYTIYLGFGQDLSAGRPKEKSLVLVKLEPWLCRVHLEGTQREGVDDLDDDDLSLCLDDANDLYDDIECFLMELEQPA
Strand | fitted relative affinity [z-score]
GACGGACGGGGTATCGGGACGTGCTAG | -0.671
TCAACTTTTTTTTTTCCACTGTGCTAG | 1.65
GACGGTATCGACTATCGGGGCGTGCTA | -0.306
TGCCCTCTAACTTCCCAATGGTGCTAG | 1.1
TCATTTCTCTTATTCTAACTGTGCTAG | 2.6
TTAGGTATCTGTATCGGTTAGTGCTAG | 0.696
GACGGTTACCTACTGCTGACGTGCTAG | 0.459
AGGGTCCCGCGATTCGACACGTGCTAG | -0.14
TCATGTCTCTGTCCCTGACTGTGCTAG | 1.89
CTAGATATCGGGTTTCGATTAGTGCTA | 2.92
TTAGGTCTCGGTAACGGTTAGTGCTAG | -0.205
GACGGTTTCGGGTATCGGAACGTGCTA | 6.08
TCAGGAGTGTTTCTCAGACTGTGCTAG | -0.113
GACGGACTGGACACTCGGGACGTGCTA | -0.587
CAAACACTAGTTTTTACTTTGTGCTAG | 0.788
TTAGGGCTGGACACTGGGTTAGTGCTA | -1.31
GACGATAACAGACTGGAGACGTGCTAG | -0.267
ACCAGTTTTCTTTTCATTACGTGCTAG | 5.08

A few entries again (block 1):
Strand | 7-mer Z-score
GUCCCAA | -0.079
CUGACCC | -0.32
UAUCUAC | -0.177
GAUAUGG | 0.00436
AGUGGGG | 0.45
AUGAGAG | -0.0863
UGGCUAA | 0.126
UCAAUUC | -0.237
CGUACGA | -0.327
CCGAGUG | -0.219
CCAUCAG | -0.168
GUUUGAA | -0.371
UCAUUAG | -0.22
UCGGACG | -0.135
UCCUCGU | -0.434
